# Measurements gathered from unrelated publications.
# A part holds a random share of what one study measured. Values joined by “and” are separate records of one study, mostly repeats; a detail may differ. pEC50: −log10 of the molar value.
# UniProt P27361, sequence (whole entry, looked up): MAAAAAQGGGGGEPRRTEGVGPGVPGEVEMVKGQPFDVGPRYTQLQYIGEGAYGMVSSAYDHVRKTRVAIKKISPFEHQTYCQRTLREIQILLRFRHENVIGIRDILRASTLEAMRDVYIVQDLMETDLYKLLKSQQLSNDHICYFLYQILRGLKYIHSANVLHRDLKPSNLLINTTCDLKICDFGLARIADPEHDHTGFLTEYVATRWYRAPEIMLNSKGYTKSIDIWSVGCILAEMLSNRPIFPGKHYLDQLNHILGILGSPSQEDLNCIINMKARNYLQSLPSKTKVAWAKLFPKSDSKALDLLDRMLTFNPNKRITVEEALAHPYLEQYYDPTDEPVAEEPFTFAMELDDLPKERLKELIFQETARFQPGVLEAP
# UniProt Q12866, sequence (whole entry, looked up): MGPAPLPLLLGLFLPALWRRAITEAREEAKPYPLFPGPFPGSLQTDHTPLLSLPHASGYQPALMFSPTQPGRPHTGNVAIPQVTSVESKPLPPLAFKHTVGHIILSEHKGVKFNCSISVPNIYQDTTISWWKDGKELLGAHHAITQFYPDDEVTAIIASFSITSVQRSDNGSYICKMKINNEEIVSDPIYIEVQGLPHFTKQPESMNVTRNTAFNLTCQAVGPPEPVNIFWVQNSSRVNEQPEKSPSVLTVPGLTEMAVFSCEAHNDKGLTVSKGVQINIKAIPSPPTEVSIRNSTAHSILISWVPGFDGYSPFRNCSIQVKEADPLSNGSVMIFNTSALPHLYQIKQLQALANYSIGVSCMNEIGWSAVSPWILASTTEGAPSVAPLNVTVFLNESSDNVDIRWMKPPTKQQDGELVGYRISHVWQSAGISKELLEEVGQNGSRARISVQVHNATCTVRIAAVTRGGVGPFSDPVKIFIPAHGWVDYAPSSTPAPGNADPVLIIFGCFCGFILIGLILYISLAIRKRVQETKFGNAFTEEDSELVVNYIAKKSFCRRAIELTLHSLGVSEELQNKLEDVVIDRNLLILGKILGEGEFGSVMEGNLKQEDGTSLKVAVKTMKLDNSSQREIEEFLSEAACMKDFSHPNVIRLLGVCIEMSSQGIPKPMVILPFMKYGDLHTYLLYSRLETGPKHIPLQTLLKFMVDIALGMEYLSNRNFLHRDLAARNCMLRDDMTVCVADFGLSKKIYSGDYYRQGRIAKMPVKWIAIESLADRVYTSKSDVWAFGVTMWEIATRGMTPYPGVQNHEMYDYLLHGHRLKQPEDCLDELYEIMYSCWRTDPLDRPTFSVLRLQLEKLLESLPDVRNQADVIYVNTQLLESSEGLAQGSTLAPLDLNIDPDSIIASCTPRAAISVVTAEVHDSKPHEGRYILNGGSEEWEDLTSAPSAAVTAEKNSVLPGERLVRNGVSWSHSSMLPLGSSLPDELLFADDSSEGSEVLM
# UniProt P29320, sequence (whole entry, looked up): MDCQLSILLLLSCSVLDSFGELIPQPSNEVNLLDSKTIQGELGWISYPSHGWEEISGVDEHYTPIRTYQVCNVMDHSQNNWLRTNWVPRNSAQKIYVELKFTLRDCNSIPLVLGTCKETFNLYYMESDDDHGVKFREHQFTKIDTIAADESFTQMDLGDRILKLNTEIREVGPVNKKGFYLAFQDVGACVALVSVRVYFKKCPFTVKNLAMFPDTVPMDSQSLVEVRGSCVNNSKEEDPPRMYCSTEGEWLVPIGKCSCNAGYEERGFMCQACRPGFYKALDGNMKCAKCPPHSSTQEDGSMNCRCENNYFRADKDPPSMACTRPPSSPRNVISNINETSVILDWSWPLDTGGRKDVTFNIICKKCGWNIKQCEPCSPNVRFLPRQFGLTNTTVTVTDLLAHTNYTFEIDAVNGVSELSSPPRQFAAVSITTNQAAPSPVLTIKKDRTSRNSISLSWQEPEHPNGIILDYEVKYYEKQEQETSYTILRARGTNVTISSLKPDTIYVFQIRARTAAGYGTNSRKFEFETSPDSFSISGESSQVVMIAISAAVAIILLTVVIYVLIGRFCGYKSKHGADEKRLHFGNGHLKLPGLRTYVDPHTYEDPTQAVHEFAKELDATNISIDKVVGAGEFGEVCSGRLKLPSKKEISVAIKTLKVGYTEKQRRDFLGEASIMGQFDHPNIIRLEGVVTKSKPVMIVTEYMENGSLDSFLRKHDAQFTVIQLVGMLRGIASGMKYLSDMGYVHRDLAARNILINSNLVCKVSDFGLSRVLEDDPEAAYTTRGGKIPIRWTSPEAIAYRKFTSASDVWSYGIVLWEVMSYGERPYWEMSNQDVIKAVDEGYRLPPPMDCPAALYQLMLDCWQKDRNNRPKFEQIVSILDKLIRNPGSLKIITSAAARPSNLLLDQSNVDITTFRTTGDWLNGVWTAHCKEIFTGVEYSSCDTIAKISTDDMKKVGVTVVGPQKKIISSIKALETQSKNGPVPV
# UniProt P61075, sequence (whole entry, looked up): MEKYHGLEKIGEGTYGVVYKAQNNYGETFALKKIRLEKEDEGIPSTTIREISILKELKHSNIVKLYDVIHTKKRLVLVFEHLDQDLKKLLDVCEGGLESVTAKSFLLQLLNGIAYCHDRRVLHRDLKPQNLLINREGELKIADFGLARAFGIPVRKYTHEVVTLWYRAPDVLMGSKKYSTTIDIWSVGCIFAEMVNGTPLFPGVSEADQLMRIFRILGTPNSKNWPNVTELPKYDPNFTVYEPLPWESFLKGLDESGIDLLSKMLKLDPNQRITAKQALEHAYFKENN
# UniProt P49841, sequence (whole entry, looked up): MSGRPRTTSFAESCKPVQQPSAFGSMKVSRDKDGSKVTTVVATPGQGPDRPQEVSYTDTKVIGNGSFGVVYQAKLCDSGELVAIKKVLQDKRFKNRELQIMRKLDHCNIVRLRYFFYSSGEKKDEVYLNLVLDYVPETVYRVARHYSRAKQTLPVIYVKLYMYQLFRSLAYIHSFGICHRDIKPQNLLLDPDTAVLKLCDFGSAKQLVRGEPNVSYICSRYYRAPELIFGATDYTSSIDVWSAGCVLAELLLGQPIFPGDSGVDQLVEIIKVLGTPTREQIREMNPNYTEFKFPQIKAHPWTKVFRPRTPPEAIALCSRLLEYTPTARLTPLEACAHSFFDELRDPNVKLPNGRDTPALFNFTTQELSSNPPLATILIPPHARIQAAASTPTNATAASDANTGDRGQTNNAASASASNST
# UniProt P9WI81, sequence (whole entry, looked up): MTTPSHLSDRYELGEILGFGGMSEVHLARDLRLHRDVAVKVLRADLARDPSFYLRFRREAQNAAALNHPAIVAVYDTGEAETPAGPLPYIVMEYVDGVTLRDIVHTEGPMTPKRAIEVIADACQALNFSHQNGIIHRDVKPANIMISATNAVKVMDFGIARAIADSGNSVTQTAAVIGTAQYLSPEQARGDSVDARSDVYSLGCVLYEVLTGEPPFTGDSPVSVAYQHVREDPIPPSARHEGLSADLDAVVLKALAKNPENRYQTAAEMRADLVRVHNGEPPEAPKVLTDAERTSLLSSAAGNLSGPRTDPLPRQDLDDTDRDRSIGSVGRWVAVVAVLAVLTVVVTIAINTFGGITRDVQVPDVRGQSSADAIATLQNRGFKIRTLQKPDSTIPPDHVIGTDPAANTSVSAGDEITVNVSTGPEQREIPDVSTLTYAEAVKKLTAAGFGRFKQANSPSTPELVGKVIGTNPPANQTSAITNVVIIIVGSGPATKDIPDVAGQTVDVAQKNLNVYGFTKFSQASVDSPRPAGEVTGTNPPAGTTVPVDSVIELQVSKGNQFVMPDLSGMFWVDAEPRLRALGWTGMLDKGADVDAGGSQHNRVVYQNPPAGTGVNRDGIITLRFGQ

# Study 1
# Compound: COc1ccc2c(c1)/C(=C/c1cnc[nH]1)C(=O)N2
# Effect on: enzyme activity
# Action: inhibitor
# Tested at: 0.5 µM
# Baseline: control
target,remaining activity [%]
"Tyrosine-protein kinase Mer (MERTK, Homo sapiens, UniProt Q12866)",84.7
"Serine/threonine-protein kinase ULK3 (ULK3, Homo sapiens, UniProt Q6PHR2)",67.9
"Ephrin type-A receptor 3 (EPHA3, Homo sapiens, UniProt P29320)",93.3
"Mitogen-activated protein kinase 3 (MAPK3, Homo sapiens, UniProt P27361)",87.2
"Glycogen synthase kinase-3 beta (GSK3B, Homo sapiens, UniProt P49841)",35.4

# Study 2
# Structure (SMILES): Cc1ccc(O)cc1Nc1ccnc2cc(-c3ccccn3)ccc12
# Cell line: L929
# Technique: CCK-8
effect on,tested at,with,viability
,3.125 µM,zVAD,61.1% and 50.5% and 49.3% and 49.1%
necroptosis protection,1.25 µM,TNF-α-induced,63.8%
necroptosis protection,0.156 µM,TNF-α-induced,40.9%
necroptosis protection,0.007 µM,TNF-α-induced,16.1%
necroptosis protection,5 µM,TNF-α-induced,53.9%

# Study 3
# Target: Beta-1 adrenergic receptor (ADRB1, Homo sapiens, UniProt P08588)
# UniProt P08588, sequence (whole entry, looked up): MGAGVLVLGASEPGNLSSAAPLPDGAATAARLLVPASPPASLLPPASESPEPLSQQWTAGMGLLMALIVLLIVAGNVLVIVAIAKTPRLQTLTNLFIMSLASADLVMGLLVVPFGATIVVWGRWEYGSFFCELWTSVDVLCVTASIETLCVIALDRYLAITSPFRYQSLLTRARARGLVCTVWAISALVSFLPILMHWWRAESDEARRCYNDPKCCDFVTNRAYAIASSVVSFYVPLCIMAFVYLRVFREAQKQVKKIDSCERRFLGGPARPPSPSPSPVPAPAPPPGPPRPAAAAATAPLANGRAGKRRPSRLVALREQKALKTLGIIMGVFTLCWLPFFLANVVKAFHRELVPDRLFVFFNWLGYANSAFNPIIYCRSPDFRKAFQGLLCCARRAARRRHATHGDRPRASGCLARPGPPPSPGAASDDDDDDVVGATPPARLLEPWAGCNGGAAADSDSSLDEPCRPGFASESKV
# Action: agonist
SMILES,pEC50
CNc1ccc2c(CCN)cc(=O)oc2c1,≤ 4.00
Oc1cc2ccccc2c2ccccc12,≤ 4.00
Cc1ncc2c(c1CNCC1(O)CNCCOC1)CCNC2 (centres unmarked),≤ 4.00

# Other studies, line by line
# Effect on: cell-free assay
# Technique: competition with immobilised ligand
# CDPK1: Calcium-dependent protein kinase 1 (CDPK1, Plasmodium falciparum, UniProt P62344)
# UniProt P62344, sequence (whole entry, looked up): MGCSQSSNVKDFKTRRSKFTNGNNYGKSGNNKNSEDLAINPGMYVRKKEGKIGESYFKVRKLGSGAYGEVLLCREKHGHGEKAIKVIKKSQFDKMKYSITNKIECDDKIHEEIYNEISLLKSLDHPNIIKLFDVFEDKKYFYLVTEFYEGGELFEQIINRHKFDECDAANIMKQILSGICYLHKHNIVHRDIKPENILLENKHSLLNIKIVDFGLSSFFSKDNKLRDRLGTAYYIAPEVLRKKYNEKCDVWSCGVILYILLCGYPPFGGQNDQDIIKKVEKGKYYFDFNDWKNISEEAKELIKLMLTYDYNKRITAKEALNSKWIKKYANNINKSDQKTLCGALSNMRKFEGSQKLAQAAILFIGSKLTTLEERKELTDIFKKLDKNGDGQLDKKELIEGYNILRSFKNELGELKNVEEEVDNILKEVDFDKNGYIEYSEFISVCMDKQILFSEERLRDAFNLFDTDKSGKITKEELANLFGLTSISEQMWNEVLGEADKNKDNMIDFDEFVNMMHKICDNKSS
Structure (SMILES),target,tested at,remaining binding [%]
Nc1c(C(=O)NCc2ccc(C(=O)NCCCC3CCCCC3)cc2)cnn1-c1ccccc1,"Serine/threonine-protein kinase PknB (pknB, Mycobacterium tuberculosis, UniProt P9WI81)",0.1 µM,100
CN([C@@H]1CCc2c(CC(=O)O)c3ccccc3n2C1)S(=O)(=O)c1ccc(F)cc1,CDPK1,1 µM,90
CO[C@H]1CC[C@H](CNc2ccc(S(=O)(=O)NC(=O)c3ccc(N4CCN(CC5=C(c6ccc(Cl)cc6)CC(C)(C)CC5)CC4)cc3Oc3cnc4[nH]ccc4c3)cc2[N+](=O)[O-])CC1,"Cyclin-dependent kinase 2 homolog (CRK2, Plasmodium falciparum, UniProt P61075)",1 µM,100
O=c1nc(-c2ccccn2)sc2ccccc12,CDPK1,1 µM,77

# Some of these lines once more (study 1):
target,remaining activity [%]
"Glycogen synthase kinase-3 beta (GSK3B, Homo sapiens, UniProt P49841)",35.4
"Ephrin type-A receptor 3 (EPHA3, Homo sapiens, UniProt P29320)",93.3
